Literature values, collected from citations in different studies.
Compare with care: the assays were run in different laboratories. ± marks the error that the study gave.
UniProt Q8NE63, sequence (whole entry, looked up): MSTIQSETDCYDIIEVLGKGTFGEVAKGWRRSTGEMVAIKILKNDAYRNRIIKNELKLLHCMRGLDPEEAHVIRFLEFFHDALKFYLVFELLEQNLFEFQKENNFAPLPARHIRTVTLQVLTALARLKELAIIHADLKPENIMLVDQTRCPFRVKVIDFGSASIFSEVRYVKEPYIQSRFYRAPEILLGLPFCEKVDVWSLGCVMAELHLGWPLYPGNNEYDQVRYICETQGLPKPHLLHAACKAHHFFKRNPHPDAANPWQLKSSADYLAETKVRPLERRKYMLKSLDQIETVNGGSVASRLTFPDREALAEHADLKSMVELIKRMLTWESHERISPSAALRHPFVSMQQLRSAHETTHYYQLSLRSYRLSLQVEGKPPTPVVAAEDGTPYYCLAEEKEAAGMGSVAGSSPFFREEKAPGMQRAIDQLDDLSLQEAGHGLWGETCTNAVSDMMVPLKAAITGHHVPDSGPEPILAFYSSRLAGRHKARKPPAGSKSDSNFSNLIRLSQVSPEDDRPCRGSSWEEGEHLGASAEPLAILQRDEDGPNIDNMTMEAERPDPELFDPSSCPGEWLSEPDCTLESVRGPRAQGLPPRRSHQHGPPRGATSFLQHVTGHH
UniProt P52699, sequence (whole entry, looked up): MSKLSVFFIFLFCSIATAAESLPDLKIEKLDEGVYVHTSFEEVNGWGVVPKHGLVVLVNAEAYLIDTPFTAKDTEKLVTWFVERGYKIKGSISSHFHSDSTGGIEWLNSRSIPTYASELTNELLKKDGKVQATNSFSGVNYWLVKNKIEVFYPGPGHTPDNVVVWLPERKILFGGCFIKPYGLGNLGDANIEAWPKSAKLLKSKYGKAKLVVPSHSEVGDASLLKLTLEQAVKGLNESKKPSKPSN
UniProt Q8TDX7, sequence (whole entry, looked up): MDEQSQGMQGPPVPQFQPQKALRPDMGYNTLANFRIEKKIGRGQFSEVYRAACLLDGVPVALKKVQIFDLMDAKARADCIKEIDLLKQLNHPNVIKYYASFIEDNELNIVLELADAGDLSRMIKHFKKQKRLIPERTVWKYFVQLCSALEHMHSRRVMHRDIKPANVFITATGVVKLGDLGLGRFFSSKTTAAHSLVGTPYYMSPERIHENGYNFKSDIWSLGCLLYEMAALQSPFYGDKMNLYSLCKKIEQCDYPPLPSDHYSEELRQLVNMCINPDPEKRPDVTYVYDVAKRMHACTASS
UniProt P22002, sequence (whole entry, looked up): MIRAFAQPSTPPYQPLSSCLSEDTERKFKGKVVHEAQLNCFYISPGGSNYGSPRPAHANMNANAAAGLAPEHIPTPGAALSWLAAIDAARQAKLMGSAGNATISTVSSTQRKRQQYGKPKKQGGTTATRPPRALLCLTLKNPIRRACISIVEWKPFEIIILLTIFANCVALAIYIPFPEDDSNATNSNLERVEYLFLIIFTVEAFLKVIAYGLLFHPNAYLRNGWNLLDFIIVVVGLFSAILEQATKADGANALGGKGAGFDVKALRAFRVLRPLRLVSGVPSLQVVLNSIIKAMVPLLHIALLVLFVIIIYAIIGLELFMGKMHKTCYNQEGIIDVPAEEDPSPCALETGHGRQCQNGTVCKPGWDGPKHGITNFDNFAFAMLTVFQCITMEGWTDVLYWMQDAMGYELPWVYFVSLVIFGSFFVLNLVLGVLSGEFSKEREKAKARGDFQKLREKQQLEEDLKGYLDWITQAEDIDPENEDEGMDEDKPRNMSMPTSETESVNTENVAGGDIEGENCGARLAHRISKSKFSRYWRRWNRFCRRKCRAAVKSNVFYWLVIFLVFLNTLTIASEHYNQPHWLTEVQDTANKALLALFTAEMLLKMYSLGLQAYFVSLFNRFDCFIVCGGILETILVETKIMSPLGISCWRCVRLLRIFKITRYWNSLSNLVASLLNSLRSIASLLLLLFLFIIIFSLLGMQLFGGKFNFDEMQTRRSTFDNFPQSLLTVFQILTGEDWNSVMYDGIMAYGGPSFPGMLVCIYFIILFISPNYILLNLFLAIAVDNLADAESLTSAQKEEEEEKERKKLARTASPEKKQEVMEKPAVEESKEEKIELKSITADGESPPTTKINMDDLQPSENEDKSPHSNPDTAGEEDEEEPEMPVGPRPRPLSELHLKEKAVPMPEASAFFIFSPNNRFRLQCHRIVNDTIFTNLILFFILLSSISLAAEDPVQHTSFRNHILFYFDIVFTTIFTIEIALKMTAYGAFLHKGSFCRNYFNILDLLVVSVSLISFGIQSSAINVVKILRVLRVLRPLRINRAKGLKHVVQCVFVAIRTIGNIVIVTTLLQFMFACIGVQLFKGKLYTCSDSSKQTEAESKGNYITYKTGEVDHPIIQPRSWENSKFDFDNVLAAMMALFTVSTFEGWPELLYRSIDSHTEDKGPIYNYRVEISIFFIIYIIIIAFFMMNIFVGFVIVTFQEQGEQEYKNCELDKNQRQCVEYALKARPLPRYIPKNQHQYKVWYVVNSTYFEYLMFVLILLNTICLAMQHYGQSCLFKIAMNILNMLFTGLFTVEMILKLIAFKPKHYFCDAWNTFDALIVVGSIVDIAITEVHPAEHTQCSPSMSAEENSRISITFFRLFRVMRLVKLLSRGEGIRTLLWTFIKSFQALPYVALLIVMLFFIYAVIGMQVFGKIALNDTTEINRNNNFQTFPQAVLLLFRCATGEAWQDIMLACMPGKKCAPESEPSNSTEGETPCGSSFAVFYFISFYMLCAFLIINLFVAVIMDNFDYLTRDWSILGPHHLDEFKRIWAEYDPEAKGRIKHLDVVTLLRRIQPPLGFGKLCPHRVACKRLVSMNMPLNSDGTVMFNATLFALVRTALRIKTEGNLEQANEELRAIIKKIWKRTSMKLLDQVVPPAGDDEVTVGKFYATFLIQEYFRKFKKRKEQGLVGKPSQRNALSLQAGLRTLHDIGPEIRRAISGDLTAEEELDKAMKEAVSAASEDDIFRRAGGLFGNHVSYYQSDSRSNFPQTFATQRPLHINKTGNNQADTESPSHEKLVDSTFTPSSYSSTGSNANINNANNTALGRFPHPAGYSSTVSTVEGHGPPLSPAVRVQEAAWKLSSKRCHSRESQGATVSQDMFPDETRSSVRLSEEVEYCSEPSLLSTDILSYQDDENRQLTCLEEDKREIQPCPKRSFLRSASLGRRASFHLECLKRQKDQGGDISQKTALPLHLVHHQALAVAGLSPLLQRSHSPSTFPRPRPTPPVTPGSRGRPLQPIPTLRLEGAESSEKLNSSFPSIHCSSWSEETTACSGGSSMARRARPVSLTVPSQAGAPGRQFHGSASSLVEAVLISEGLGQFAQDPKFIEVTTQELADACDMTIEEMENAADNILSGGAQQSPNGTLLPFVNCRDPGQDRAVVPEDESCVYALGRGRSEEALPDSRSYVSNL
UniProt P07333, sequence (whole entry, looked up): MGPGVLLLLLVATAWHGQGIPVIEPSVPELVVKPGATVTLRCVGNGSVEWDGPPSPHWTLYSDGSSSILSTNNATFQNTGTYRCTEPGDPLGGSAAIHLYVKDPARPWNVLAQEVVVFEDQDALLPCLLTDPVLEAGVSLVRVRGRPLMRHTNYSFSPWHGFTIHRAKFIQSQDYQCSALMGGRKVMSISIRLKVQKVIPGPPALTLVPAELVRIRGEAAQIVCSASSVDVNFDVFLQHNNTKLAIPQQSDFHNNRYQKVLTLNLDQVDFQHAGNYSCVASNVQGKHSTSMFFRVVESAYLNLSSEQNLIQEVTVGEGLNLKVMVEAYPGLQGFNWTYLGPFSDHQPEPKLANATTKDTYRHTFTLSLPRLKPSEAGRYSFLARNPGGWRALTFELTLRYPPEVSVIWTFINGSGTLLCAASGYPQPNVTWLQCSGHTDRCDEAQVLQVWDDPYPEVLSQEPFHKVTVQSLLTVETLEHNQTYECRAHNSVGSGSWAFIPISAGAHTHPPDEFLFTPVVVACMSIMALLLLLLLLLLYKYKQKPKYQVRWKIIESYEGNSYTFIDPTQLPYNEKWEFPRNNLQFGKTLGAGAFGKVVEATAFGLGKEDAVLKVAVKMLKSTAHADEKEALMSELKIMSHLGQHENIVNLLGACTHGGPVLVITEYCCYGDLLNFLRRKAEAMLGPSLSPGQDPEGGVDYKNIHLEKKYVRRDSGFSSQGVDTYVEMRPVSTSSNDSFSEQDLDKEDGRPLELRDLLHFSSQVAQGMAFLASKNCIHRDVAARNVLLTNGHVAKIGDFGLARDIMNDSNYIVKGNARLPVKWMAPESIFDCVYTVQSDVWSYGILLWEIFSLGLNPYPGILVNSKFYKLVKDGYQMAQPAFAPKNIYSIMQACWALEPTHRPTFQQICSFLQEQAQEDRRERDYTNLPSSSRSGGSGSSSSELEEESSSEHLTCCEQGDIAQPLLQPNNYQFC
UniProt P48039, sequence (whole entry, looked up): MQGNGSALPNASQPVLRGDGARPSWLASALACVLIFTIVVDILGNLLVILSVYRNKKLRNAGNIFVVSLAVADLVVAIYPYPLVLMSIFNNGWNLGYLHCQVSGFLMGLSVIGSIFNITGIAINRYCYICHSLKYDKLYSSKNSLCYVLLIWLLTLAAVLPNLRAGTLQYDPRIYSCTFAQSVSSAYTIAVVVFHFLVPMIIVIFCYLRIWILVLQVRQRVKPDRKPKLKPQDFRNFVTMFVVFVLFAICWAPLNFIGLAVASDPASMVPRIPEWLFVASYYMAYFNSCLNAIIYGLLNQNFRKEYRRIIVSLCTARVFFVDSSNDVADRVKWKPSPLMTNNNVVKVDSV

Structure (SMILES)	tested on	assay	system	conditions	scale	quantity	value
Nc1nc2c(ncn2[C@@H]2O[C@H](COP(=O)(O)OP(=O)(O)O)[C@@H](O)[C@H]2O)c(=O)[nH]1	MiD51			concentration not given		binding	binds
O=[N+]([O-])O	napA (Campylobacter jejuni, UniProt Q9PPD9)	reduction, substrate				Km	3.4 µM
NCCN[C@H]1CC[C@H](CC(=O)N[C@H]2Cc3cccc(C(=O)O)c3OB2O)CC1	Metallo-beta-lactamase type 2 (Serratia marcescens, UniProt P52699)			concentration not given		inhibition	no inhibition
Cc1cc(NC(=O)c2cccc(NC(=O)/C=C/CN(C)C)c2)ccc1Nc1nccc(-c2cccnc2)n1	HIPK4 (Homo sapiens, UniProt Q8NE63)	enzyme activity, inhibitor		1 µM	baseline: vehicle	remaining activity	4%
CCCCCN1C[C@H](O)[C@@H](O)[C@H](O)[C@@H]1CO	maltase			concentration not given		inhibition	inactive
O=C(c1cccnc1-c1ccncc1)N1CCC(O)(Cc2ccccc2)CC1	cholesterol 24-hydroxylase	PET	monkey, brain	0.89 mg/kg		enzyme occupancy	100%
CCOC(=O)C1=C(C)NC(C)=C(C(=O)OC)C1c1cccc([N+](=O)[O-])c1 (stereo not shown)	Cacna1c (Rattus norvegicus, UniProt P22002)			historical reference value		Hill coefficient	0.9
CC/C=C(\C)C=O	YqjM (Old Yellow Enzyme homolog)	ene-reductase biotransformation, substrate				conversion	78%
CC(C)(O/N=C(\C(=O)N[C@@H]1C(=O)N2C(C(=O)[O-])=C(C[n+]3ccccc3)CS[C@H]12)c1csc(N)n1)C(=O)O	Enterobacter cloacae		clinical isolate RKI-No_287/13			MIC	≤ 2 mg/L
Nc1cc(C(F)(F)F)c(-c2nc(N3CCOCC3)nc(N3CCOCC3)n2)cn1	NEK7 (Homo sapiens, UniProt Q8TDX7)	enzyme activity		10 µM	baseline: untreated	remaining activity	100%
Cc1nc(NC(=O)N2CCC[C@H]2C(N)=O)sc1-c1ccnc(C(C)(C)C(F)(F)F)c1	Macrophage colony-stimulating factor 1 receptor, autoinhibited (CSF1R, Homo sapiens, UniProt P07333)	KinomeScan competition binding		10 µM		remaining binding	98%
CC(=O)N[C@@H](COP(=O)(O)O)C(=O)N1CCC[C@H]1C(=O)N[C@@H](C)C(=O)N[C@@H](Cc1ccccc1)C(N)=O	Breast cancer type 1 susceptibility protein, tandem BRCT domains (BRCA1, Homo sapiens, UniProt P38398)	isothermal titration calorimetry				ΔG	-24.7 ± 0.837 kJ/mol
Cc1c(CN2CCN(C(=O)[C@H](C)O)CC2)sc2c(N3CCOCC3)nc(-c3cnc(N)nc3)nc12	PI4KB (Homo sapiens, UniProt Q9UBF8)	KinomeScan competition binding		10 µM		remaining binding	100%
CNC(C)C1CCC(N)C(OC2C(N)CC(N)C(OC3OCC(C)(O)C(NC)C3O)C2O)O1 (stereo not shown)	Acinetobacter baumannii		clinical isolate RKI-No_16/16			MIC	> 8 mg/L
C=CC(=O)N1CCC(C(=O)NCC(=O)N2CCN(c3nc(-c4cnc(N)nc4C(F)F)nc(N4CCOCC4)n3)CC2)CC1	PIK3CA (Homo sapiens, UniProt P42336, H1047L)	kinase activity		1 µM		remaining activity	0.45%
COc1ccc2[nH]cc(CCNC(C)=O)c2c1	MTNR1A (Homo sapiens, UniProt P48039)	binding				Hill coefficient	0.7
